Measured values gathered from unrelated publications.
Numbered parts are unrelated; each lists some results of a single study.

Set 1
Target: Centromere-binding protein 1, full length, His-tagged (CBF1, Saccharomyces cerevisiae, UniProt P17106, residues 1-351)
Sequence of UniProt P17106 (whole entry, looked up): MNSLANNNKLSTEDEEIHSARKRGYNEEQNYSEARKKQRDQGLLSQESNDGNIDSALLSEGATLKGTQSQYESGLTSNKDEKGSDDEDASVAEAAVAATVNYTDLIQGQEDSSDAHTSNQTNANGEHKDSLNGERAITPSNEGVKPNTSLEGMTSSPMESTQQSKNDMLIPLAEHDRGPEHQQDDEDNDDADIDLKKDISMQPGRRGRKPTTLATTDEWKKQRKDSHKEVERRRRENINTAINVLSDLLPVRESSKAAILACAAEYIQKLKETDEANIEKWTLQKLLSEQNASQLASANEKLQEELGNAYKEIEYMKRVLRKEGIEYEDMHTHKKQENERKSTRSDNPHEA
Technique: competition protein-binding microarray
Form: double-stranded DNA, one strand shown
Matrix: in vitro
Tested at: 2 µM
Setting: whole 60-bp probe, lowest competitor level
Together with: Pho4 competitor, 0.05 µM
Reading: higher = stronger binding
Quantity: fluorescence intensity
All sequences stand within: … GTCTTGATTCGCTTGACGCTGCTG
Strand = GATTTGAATCCAATTCACGTTTCAAGTCATTTTGCC; result = 122 a.u.
Strand = GGCGCAGCGCATCTGCACGTGGTTCCAGGCCGAGCT; result = 1010 a.u.
Strand = CTCCGGAAGAAAGAGCTCGTGGTGATACAATTTCTA; result = 98.2 a.u.
Strand = CCCTGATTAACTCACCACGTGCTTTCAAGGTCGTTA; result = 3010 a.u.
Strand = CGTCCTAGTGATTGCTCGGTGGGTGCCATGAGGAAG; result = 71 a.u.
Strand = GTCTTGTCTCATTGTCATGTGGGTGTCCCCACTTCA; result = 196 a.u.
Strand = CTTCTGTAAATTTGTCACTATACTTGACGCGCCCCG; result = 92.6 a.u.
Strand = TGCGCAACAACTTGCTCCGTGGGTGTATGTCTAGAA; result = 55.9 a.u.
Strand = GAAAGCATATCATATCACATGTACAGATTGAGCATA; result = 1100 a.u.
Strand = ACCGGCAAGCGTTGGCTCATGACAACTGCCACCTCC; result = 71.4 a.u.
Strand = GGGTACCCAATTCGTCACGTTTCACGAATTCTCGGG; result = 518 a.u.
Strand = GGAGACACTAATAAGCACGTGAGGGTTTTTGGACAA; result = 2530 a.u.
Strand = TCAGAGGTATTCTCTCATGTGGTGAAGTCCATCAAT; result = 71.6 a.u.
Strand = CGGGGTTAAGTTTGCCACGTGTTTTGCTTGCAGCAG; result = 1000 a.u.
Strand = AAAGCGGTAATTTGGACTGTGGGTGCAGATATCTAT; result = 71.2 a.u.
Strand = GTCTTGTCTCATTGTTGCGTGGGTGTCCCCACTTCA; result = 77.1 a.u.
Strand = CATACCCAACCTTGTCACTGAACTTAAGATATTTGT; result = 77.9 a.u.
Strand = GATGCCGAAGATTTCCATGTGGCTGAGGAAGTTAAA; result = 60.9 a.u.
Strand = AAATTACTAAGTTGCCCCGTGGGTGACGCCGTATGA; result = 63.3 a.u.
Strand = CAATTCTTTTACCATCACGTCACCTAACCAACCATT; result = 115 a.u.
Strand = ACAGTCTTTCCGTTACACGCACACACTTGTTTATTA; result = 80.8 a.u.
Strand = CGTCCTAGTGATTGCCAAGTGGGTGCCATGAGGAAG; result = 83.6 a.u.

Set 2
Target: Hepatocyte nuclear factor 3-beta, forkhead domain (FOXA2, Homo sapiens, UniProt Q9Y261, residues 142-269)
Technique: protein-binding microarray
Form: double-stranded DNA, one strand shown
Matrix: in vitro
Tested at: not given
Setting: k-mer, scored over probes, only values ≥0.25
Reading: higher = stronger binding
Quantity: E-score
Residues (chain): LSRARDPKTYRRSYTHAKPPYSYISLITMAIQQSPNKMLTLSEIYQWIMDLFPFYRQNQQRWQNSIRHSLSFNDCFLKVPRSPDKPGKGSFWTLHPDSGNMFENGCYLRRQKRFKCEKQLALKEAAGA
Strand = ACATATAG; result = 0.324
Strand = GTTAAATA; result = 0.28
Strand = AACAATTG; result = 0.262
Strand = ATGTGTTA; result = 0.392
Strand = ACATGTTA; result = 0.32
Strand = ATATGGAT; result = 0.314
Strand = AACAAATA; result = 0.419
Strand = TATTAACA; result = 0.304
Strand = TATTGAAA; result = 0.276
Strand = AGGGTATA; result = 0.287
Strand = ACAACTAT; result = 0.305
Strand = AGTATAAG; result = 0.316
Strand = GTATAAAA; result = 0.306
Strand = GTAATCTA; result = 0.299
Strand = ACCAACAT; result = 0.3
Strand = GATATCTA; result = 0.252
Strand = AACATAAC; result = 0.317
Strand = ACAAGTAT; result = 0.282
Strand = TATACTGA; result = 0.339

Set 3
Target: RNA binding protein fox-1 homolog 2, RRM domain, GST-SBP tag (RBFOX2, Homo sapiens, UniProt O43251-10, residues 100-194)
Technique: RNA Bind-n-Seq
Form: RNA
Matrix: in vitro
Tested at: 365 nM
Setting: natural RNA segment, single round, ends assumed
Baseline: no-protein control
Reading: higher = stronger binding
Quantity: RBNS enrichment (R)
All sequences stand within: GGGAGUUCUACAGUCCGACGAUC … UGGAAUUCUCGGGUGCCAA
Residues (chain): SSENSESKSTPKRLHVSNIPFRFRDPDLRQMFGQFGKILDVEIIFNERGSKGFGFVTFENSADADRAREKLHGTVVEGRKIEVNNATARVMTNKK
Strand = CCAGAUCGCCCUGCCUAUCCACAAAGUAGAUGACCAAUGCACGCUCCUCAAACAUCUUUGGAGGAACUACCUGGCCAAAACACUGGCCAGGAUGCAGCAAGCAGCAGCAG; result = 0.544
Strand = AAAAUAAACAUACAAUAUCCAAAAAUAUAUUCUUUUCACAUAUUCAGUGUCUCCUAACAAACUAGUACUGGACUUACAGUACUGCCAAAUCUUUGUUAAGUUUCAUGAUG; result = 0.432
Strand = UAGAAAUCCAUGAACACUAAAGGACUUCAUUGAUUUUUUCAGAGAGUAGAAAACAACUUAGUUUUUCUUUUUUCCUGAAUGCGUCAUAGGCUUGUGAGUGAUUUUUGUCC; result = 0.62
Strand = AGCUCCCAGGAGGGGCUUCUGGGCAGACUCUGGUCAAGAAGCAUCGUGUCUGGCGUUGUGGGGAUGAACUUUUUGUUUUGUUUCUUCCUUUUUUAGUUCUUCAAAGAUAG; result = 0.51
Strand = UAGUUAUUGUAUUGCUACAAUUUAAAUAUUAAAACAAAUAAGAGCUUUCUCAACAAAUUAGUCCAUCUCAUUGAUGUACCACAGAAAUCCAAAGCUUUGCUGUCAUCACA; result = 0.503
Strand = UGUCUGCUACUUUGACCUCAUAAAGAAAUCUGCAACACAGAUGAAACCAGUCUGUGUGGCCAAGCUGAUGGGAUUUGAAAAGAGUGGAUAAUUUUUAGCCUUUCCAAAAU; result = 0.351
Strand = UUUAAAUGUUAACCAUUUGCAGAUUGCAUUAGCAUGUCUCUGCCUCUCUACCCUGAAAUGGGUGAAGGAGUCUUGUUCAGUUGUUUUAUAAGAGGUGCUCACAGAAAGAA; result = 4.34
Strand = GUGUAAAGAAAAUAGUUUCUUGGGUAUUUGUAACGUACAAACUAUCAUAAAAAUUCUCCUCUUUCGCUCUCACUUUGUCUCUUCUAAGUCGGCCUCAGCAAUAGCCCAGG; result = 0.446
Strand = UGCCCUCUCCCUUUGCAGGACCACAGCUCCCGUCCUUUGGCUUCUGGUCCUUCCUGUUCUCCACCCUGGUUUCUUAAGUAGUUGGUUCUUCUCCUUAGUCUUCCUGACUC; result = 0.646
Strand = CACAACAUGUGCCUUGCUCUCCCGAGGACAAGUAUUAACUUUUAAAUAAUAUCCGCGCACACAGACGCAUGCCCUGCACGCAUAGUUACAAACAGACAAAUGAUUACAUG; result = 10.9
Strand = GAGGCACAGCUUAGAUGUUUUGUACACCUGGUCUUUUCUAGAAAUCCCUGCUUGGAGCUGCAGAAGGGUUGCCUUCUGUAGGUCGGAGGAAUGGAGGCUUACUAACCAGG; result = 0.281
Strand = AGACCAAUUGGAUUUUCAUGGAGGCCAGGACAGAGAGUGGUAAUUGAUGGCUUGUGUACAGACAAGCAUUUAUCCAGGUUGCGUUAUCCAAACUGAUUUGUUAAAGCUCC; result = 1.81

Set 4
Target: Interferon regulatory factor 7, full length, phosphomimetic (IRF7, Homo sapiens, UniProt Q92985, residues 1-503, S101K/S471D/S472D/S475D/S476D/S477D/S483D/S484D/S487D)
Sequence of UniProt Q92985 (whole entry, unmodified, looked up): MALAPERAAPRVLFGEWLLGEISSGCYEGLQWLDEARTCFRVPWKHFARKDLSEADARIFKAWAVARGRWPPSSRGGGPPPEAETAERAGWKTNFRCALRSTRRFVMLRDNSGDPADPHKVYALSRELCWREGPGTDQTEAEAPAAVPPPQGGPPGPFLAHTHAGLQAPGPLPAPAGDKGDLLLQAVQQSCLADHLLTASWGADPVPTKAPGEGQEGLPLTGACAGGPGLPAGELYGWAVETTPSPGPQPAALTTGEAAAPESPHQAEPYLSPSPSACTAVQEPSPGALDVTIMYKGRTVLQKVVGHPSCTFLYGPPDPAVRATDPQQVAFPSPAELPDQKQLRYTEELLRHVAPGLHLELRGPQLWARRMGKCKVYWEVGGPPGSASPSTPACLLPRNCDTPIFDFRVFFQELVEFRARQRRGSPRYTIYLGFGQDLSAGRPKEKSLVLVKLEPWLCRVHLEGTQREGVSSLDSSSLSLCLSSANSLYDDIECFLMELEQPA
Technique: protein-binding microarray
Form: double-stranded DNA, one strand shown
Matrix: in vitro
Tested at: 250 nM
Setting: 60-bp whole probe
Together with: salmon DNA 0.4 mg/ml
Baseline: random background probes
Reading: higher = stronger binding
Quantity: log fluorescence
All sequences stand within: GCCTAGCAC … GTCTTGATTCGCTTGACGCTGCTG
Strand = TTAGGTTTCATTCTCCTTTAGTGCTAG; result = 3.86 z-score
Strand = GACTATATCGGGACTGGAGACGTGCTA; result = 0.192 z-score
Strand = GCAGGGCTCTCTTCTGCTTCCGTGCTA; result = -0.752 z-score
Strand = TTATATTTCGGGTTTCGATTAGTGCTA; result = 7.74 z-score
Strand = GACCATTTCAGTTCCGAGACGTGCTAG; result = 1.53 z-score
Strand = ACTCTTCTTTTTTTTCTTTAGTGCTAG; result = 1.38 z-score
Strand = GACGGTTTCAGACTGGAGACGTGCTAG; result = 0.536 z-score
Strand = TTAGGACTGCACTATCGGTTAGTGCTA; result = -0.52 z-score
Strand = GTAGAACTGAGTCTCGATTAGTGCTAG; result = 0.931 z-score
Strand = TTAGGTATCGGTTTCGCTTAGTGCTAG; result = 9.17 z-score
Strand = GCCCCACCCGCTCTGGCCCCGTGCTAG; result = 0.734 z-score
Strand = CACGGACTGGACTATCGGGACGTGCTA; result = -0.705 z-score
Strand = TTCATTTTTTTTTTCATCATGTGCTAG; result = 0.762 z-score
Strand = GACAGTTTCGACTATCGGGACGTGCTA; result = 5.13 z-score
Strand = TTAGGACTGCCTTTCCTTTAGTGCTAG; result = 0.578 z-score
Strand = GACGGTATCCTTTTCCAGACGTGCTAG; result = 0.82 z-score
Strand = TTAGCACTGCTTCTCCTTTAGTGCTAG; result = -0.0795 z-score
Strand = TTAGGACTGGGGTTTCGGCTAGTGCTA; result = 0.697 z-score

Set 5
Target: Histone acetyltransferase KAT6A, both winged helices, GST fusion (KAT6A, Homo sapiens, UniProt Q92794, residues 1-181)
Technique: protein binding microarray
Form: double-stranded DNA, one strand shown
Matrix: in vitro
Tested at: not given
Setting: 8-mer, flanks averaged, mean of 2 arrays, mostly near background
Baseline: not given
Reading: higher = stronger binding
Quantity: E-score
Residues (chain): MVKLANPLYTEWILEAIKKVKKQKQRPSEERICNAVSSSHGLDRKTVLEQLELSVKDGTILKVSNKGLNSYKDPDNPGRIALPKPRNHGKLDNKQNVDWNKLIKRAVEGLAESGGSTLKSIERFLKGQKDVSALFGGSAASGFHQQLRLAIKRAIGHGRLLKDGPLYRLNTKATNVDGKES
Strand = ACGCGAGT; result = 0.223
Strand = CAGATCAG; result = -0.132
Strand = AGTATGGC; result = 0.0035
Strand = AATAGGAG; result = -0.0873
Strand = ATCCACAT; result = -0.0868
Strand = CGTTCTCA; result = 0.0755
Strand = GGCTAGTA; result = -0.106
Strand = GACATGGC; result = -0.118
Strand = AAGTCACG; result = 0.0349
Strand = CACGAGCG; result = 0.126
Strand = CGTAGCTC; result = 0.119
Strand = AGGCAGGC; result = -0.138
Strand = CAAGCGAA; result = -0.0729
Strand = GTGAAGAA; result = 0.0658
Strand = GGTAAGAA; result = -0.0876
Strand = CGTATAGA; result = -0.00664
Strand = CTTGGGTC; result = -0.218
Strand = ACCCTACA; result = -0.248
Strand = GTACTACA; result = -0.177
Strand = CTCTGCCA; result = -0.138
Strand = GTATGACA; result = 0.0176
Strand = ACCGACGC; result = 0.33

A few entries again (set 2):
Strand = ACATATAG; result = 0.324
Strand = GTATAAAA; result = 0.306
Strand = TATTGAAA; result = 0.276
Strand = ACAACTAT; result = 0.305
Strand = AGGGTATA; result = 0.287
Strand = TATACTGA; result = 0.339
Strand = TATTAACA; result = 0.304
Strand = GATATCTA; result = 0.252
Strand = AACATAAC; result = 0.317
Strand = ACAAGTAT; result = 0.282
Strand = AACAAATA; result = 0.419
Strand = AACAATTG; result = 0.262
Strand = AGTATAAG; result = 0.316
Strand = GTAATCTA; result = 0.299
Strand = ACCAACAT; result = 0.3
